Results from different studies.
Lines come from different studies, so protocols differ.
Chain of UniProt Q15759 (whole entry, looked up): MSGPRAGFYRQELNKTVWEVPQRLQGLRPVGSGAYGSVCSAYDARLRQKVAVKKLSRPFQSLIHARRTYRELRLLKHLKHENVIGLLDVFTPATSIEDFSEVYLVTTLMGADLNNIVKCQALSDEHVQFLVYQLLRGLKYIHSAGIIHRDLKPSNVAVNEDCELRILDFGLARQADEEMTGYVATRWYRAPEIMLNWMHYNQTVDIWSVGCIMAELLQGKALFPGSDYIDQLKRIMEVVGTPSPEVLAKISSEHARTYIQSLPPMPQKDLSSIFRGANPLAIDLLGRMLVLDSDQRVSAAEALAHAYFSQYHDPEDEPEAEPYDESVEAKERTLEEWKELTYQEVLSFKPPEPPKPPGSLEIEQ

CCCCCCC#Cc1cncc(-c2nnc(SCc3ccc(Cl)c(F)c3)n2C)c1 — selectivity index (Vero; baseline: Vero CC50 over Mtb IC50): > 23
CNc1ncc2c(/C=C/C(=O)N3CCC4(CC3)OCCO4)nn(Cc3cccc(C)c3)c2n1 — EC50 (SKGT4; 120 h): 2.52 µM
COc1ccc(-n2nc(C(C)=O)s/c2=N\N=C(/C)c2ccc(NC(C)=O)cc2)cc1 — toxicity (HepG2; 2.5 µM): 94.3%
CN1C(=O)C(C2C3=C(CC(C)(C)CC3=O)Oc3c(O)cccc32)C(=O)N(C)C1=O (stereo not shown) — mean lipid content (3T3-L1 mature adipocytes; lipolysis, Oil Red O staining; IC20): 0.665 OD492
Cc1c(C(=O)c2cccc3ccccc23)c2cccc3c2n1[C@H](CN1CCOCC1)CO3 — EC50 (TC-71; cytotoxicity, LDH release): 1.7 µM
O=C1NC(=O)C(C2C3=C(CCCC3=O)Oc3ccc([N+](=O)[O-])cc32)C(=O)N1 (stereo not shown) — mRNA level (mouse preadipocytes; qPCR, item: C/EBPα; IC20, 14 days, adipogenic induction; baseline: untreated cells): decreased
Fc1ccc(C(OCCCc2c[nH]cn2)c2ccc(F)cc2)cc1 — IC50 (Plasmodium falciparum; W2): 0.631 µM
O=C(NC12CC3CC(CC(C3)C1)C2)c1cc(-c2ccc(Cl)cc2)c[nH]1 — IC50 (Vero; 48 h): > 64 µg/mL
CCCCCCC#Cc1cncc(-c2nnc(Sc3ccc([N+](=O)[O-])cc3[N+](=O)[O-])n2C)c1 — selectivity index (Vero; baseline: Vero CC50 over Mtb IC50): 27
COc1ccc(-c2c[nH]c(C(=O)NC3C4CC5CC(C4)CC3C5)c2)cn1 (stereo not shown) — IC50 (Vero; 48 h): 34.2 µg/mL
C[C@H]1CN(c2n[nH]c3nc(N[C@H]4CC[C@H](NS(=O)(=O)CCC(F)(F)F)CC4)ncc23)CCO1 — relative binding (MAPK11 (Homo sapiens, UniProt Q15759); Kinobeads binding, Kinobeads competition pull-down; HEK293, K562 and placenta lysate; 20 µM; baseline: vehicle): 0.21
O=C(NC12CC3CC(CC(C3)C1)C2)c1cc(-c2ccc(F)cc2)c[nH]1 — IC50 (Vero; 48 h): 25.4 µg/mL
CP(=O)(O)CCCN — IC50 (Plasmodium falciparum; GB4): 3.16 µM

For quick reference, copied from above:
Cc1c(C(=O)c2cccc3ccccc23)c2cccc3c2n1[C@H](CN1CCOCC1)CO3 — EC50 (TC-71; cytotoxicity, LDH release): 1.7 µM
